Results from different studies.
Every numbered part comes from another study and shows a few of its results, in no order. Substitutions count along the parent as printed.

Series 1
Target: CCNB3, cyclin fold, Cln2 fusion (human)
Method: yeast growth competition, sequencing
Sample: yeast
Notes: weak parent motif
Baseline: not given
Reading: higher = stronger binding
Starting sequence: CDC25A docking peptide (human); PPHRRRLLFACSP
| Variant | normalised enrichment score |
| --- | --- |
| P2K | 0.132 |
| F9A | 0.307 |
| A10E | 0.228 |
| L7R | 0.289 |
| R5Q | 0.412 |
| S12T | 0.297 |
| H3F | 0.613 |
| A10H | 0.101 |
| S12C | 0.157 |
| L8H | -0.0408 |
| F9W | 0.217 |
| P2Y | 0.332 |
| S12Q | -0.33 |
| F9L | 0.182 |

Series 2
Target: Prothrombin, mature alpha-thrombin (F2, Homo sapiens, UniProt P00734)
Method: aptamer microarray, sandwich
Form: DNA with 2'F-ANA
Sample: in vitro
Tested at: 200 nM
Notes: whole 15-mer aptamer, many near background
Added: Cy3 exosite-II aptamer, 400 nM
Reading: higher = stronger binding
Strand: GGTTGGTGTGGTTGG
| Modification | mean fluorescence intensity [a.u.] |
| --- | --- |
| 2'F-ANA at 4 5 7 9 11 12 15 | 95.1 |
| 2'F-ANA at 1 2 4 7 8 10 11 14 | 48.4 |
| 2'F-ANA at 2 9 10 11 13 14 | 85.4 |
| 2'F-ANA at 1 2 4 6 7 8 11 12 | 226 |
| 2'F-ANA at 1 3 4 5 6 8 11 13 15 | 59.4 |
| 2'F-ANA at 1 2 4 5 6 10 11 15 | 49.2 |
| 2'F-ANA at 1 2 6 7 9 11 13 14 | 52.6 |
| 2'F-ANA at 3 4 9 10 12 14 15 | 219 |
| 2'F-ANA at 2 3 4 6 11 12 13 | 551 |
| 2'F-ANA at 1 2 6 7 9 11 12 14 | 54.8 |
| 2'F-ANA at 1 4 6 8 9 12 13 14 15 | 57.2 |
| 2'F-ANA at 2 7 10 11 12 15 | 174 |
| 2'F-ANA at 2 3 4 6 8 9 10 11 15 | 178 |
| 2'F-ANA at 1 2 3 5 6 7 9 14 15 | 62.2 |
| 2'F-ANA at 2 3 5 7 8 12 14 | 58.7 |
| 2'F-ANA at 2 4 6 9 12 | 578 |
| 2'F-ANA at 2 4 6 8 9 14 | 92.9 |
| 2'F-ANA at 4 6 7 8 9 10 | 128 |

Series 3
Target: ABI1, truncated, D143A, DHFR fusion (Arabidopsis thaliana)
Method: DHFR PCA, deep sequencing
Sample: yeast
Notes: methotrexate growth selection, single substitutions
Added: (+)-ABA 58 µM
Baseline: wild-type fitted maximum
Reading: higher = stronger binding
Starting sequence: PYL1, truncated, DHFR fusion (Arabidopsis thaliana); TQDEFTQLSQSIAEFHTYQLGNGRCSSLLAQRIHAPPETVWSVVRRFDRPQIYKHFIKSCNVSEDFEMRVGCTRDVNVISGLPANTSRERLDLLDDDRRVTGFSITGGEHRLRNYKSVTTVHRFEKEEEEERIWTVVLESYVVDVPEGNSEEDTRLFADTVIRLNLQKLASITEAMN; partner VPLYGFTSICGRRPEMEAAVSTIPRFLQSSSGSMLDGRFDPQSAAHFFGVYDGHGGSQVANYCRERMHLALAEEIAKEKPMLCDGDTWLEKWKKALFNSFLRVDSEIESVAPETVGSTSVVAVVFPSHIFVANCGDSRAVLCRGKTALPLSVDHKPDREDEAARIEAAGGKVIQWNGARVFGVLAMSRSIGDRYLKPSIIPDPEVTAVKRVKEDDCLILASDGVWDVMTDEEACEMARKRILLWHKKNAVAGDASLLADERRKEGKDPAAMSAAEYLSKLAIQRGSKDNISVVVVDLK
| Variant | relative binding score [%] |
| --- | --- |
| T160W | 56.9 |
| V43T | 63 |
| T135W | 4.73 |
| L29P | -10.1 |
| A158I | 85.8 |
| M68H | 84.5 |
| G102V | 14.5 |
| Y141H | 21.8 |
| E174P | 42.4 |
| R90L | 33.7 |
| V118R | 95.2 |
| F47H | -4.87 |
| L138W | -0.0675 |
| R132P | 104 |
| I162M | 18.9 |
| V143F | 13.4 |
| R98D | 56.2 |
| R98N | 77.3 |

Series 4
Target: RNA binding protein fox-1 homolog 2, RRM domain, GST-SBP tag (RBFOX2, Homo sapiens, UniProt O43251-10, residues 100-194)
Method: RNA Bind-n-Seq
Form: RNA
Sample: in vitro
Tested at: 365 nM
Notes: natural RNA segment, single round, ends assumed
Baseline: no-protein control
Reading: higher = stronger binding
All sequences stand within: GGGAGUUCUACAGUCCGACGAUC … UGGAAUUCUCGGGUGCCAA
Residues (chain): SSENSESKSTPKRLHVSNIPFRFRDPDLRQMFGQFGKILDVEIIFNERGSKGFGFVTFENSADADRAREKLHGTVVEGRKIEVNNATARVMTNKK
| Strand | RBNS enrichment (R) |
| --- | --- |
| UACAACAUGUACAUAAGAAUACACAUAAUUCAACUAGAGAUUUGAAGAAUUGGCUUGUAUAGUUAUAACAACCACAGUAGAAACAUUUCUACUUUGAGAGAAUUUCAAUA | 0.989 |
| GAGCCCUGCUCCUUGUGGGCGCUCACACUGCCCCCGGAGCCUGCUGGGAGUGGGGCCAGCCGUGGACAGCUGAGGUUGGGGUCAAUGCCUCCUGGGCACCCUUGCCUCGC | 0.98 |
| UACUUUUUCUUAAAGCACCCGUUCACCUUCUUGGUUGAAGUUGUGUUAACAAUGCAGUAGCCAGCACGUUCGAGGCGGUUUCCAGGAAGAGUGUGCUUGUCAUCUGCCAC | 0.588 |
| GCAGAUUUCGGAAAUUGGCAAGCUACGGGAUUCCUUCCUGAAAGAUCAACUGUGUCUUAAGGCUCUCCAGCCUAUGCAUACUGUAUCCUGCUUCAGACUUAGGUACAAUU | 0.441 |
| CGUCUUUGCCCACGUCCCGACAACUUGUUCCCUGACCCCCUCAGGGAUGGCCCCAAACUGUCCCUGCCUCUGGCACCCCCUUUCAUUGGUUCCAUCCAUCCCCACAACAG | 0.413 |
| AACCAGGCUGAGCCAGGCCUCCACCCCCACCCCCGUUUGCUGGGGGCUCCUCCAGCCGCCCCCAUGGGAAGAGGCCUGGUACCGCCUCACCCACAGAGGUCUGUGCCAGG | 2.32 |
| CAGAGCCUUCCGAGCAGCAUUUAGAAAGCACCUUUGGGAAUGAUGGACUGCAAGGGAGUGGGCGGAUCUUCCUCUUAAACAGUAUUCUUAGAGUAGGAUUGACCUCAUGG | 1.62 |
| CCAUUGUUACAAGUUUAUAAUGUAUUUUUCUAUCUUGUUUUAUAUGUAUGUUAUAUAACAUUCAAAAGAAUUUUUUUCUUGAUUGAGAAAAGGAUACAAAAUGCAAAAUC | 1.15 |
| UCAAGGGUAACCAGUGAGGCUAUGAAAUUGCCAGUGAAUUAAGACCAGGGCUAGAGUCAACAGUCCAGAACCCCUAUCCGUAUGAACAGGGGCCCGUUUCUGGUUGAAAU | 0.611 |
| UGUCCUGGUCACUUGUACUGGUUACAGAGCCUCUCAGCGAUGGCUACACCACCCUUCUCACCCUGCCUCCAUCCCCAAAUCUCAAGCAACACAAUCAGCGGGUACUACCU | 0.562 |
| CCUUUCCUCAGUGUUCAUGCAAAAAUUAAAUGUCUUUUUUCAGCAUACUGACUCCAGGUGUAGUUACAUCUCAGUGCUGUCUUGAGUAUAUAUUUUAUCUCUUAUACCUG | 0.322 |
| UGGGCCAAUUAUUCAAUUUUCAAGAAUUUUGUUGCAAGCCAGUUGUCAAACACAGCCAUUAUAAUUAUGUAAAUUUGCAAAUUAUGUUAAAAACAAGGACAAUAAAUAUU | 0.619 |

Series 5
Target: Histone acetyltransferase KAT6A, winged helix 2, GST fusion (KAT6A, Homo sapiens, UniProt Q92794, residues 85-181)
Method: protein binding microarray
Form: double-stranded DNA, one strand shown
Sample: in vitro
Tested at: not given
Notes: 8-mer, flanks averaged, mean of 2 arrays, mostly near background
Baseline: not given
Reading: higher = stronger binding
Construct (chain): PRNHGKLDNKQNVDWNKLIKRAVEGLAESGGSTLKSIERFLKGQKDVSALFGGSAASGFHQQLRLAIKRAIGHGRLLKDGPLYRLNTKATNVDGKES
| Strand | E-score |
| --- | --- |
| ATCACGAC | -0.0582 |
| AGCCGGAT | 0.231 |
| AGAGTAAA | 0.00171 |
| CAGCTCAG | -0.0309 |
| CCAAGTCC | -0.241 |
| AGCTCTAG | 0.0191 |
| CAGTAAGC | 0.0631 |
| CACAAACA | 0.0661 |
| CAAACAGA | 0.113 |
| CGGCTAGA | 0.0706 |
| ACATCTCC | -0.105 |
| CTATTAAA | 0.0469 |
| CGGTCATA | -0.0007 |
| GTCGTTGA | -0.0981 |
| CAAAACGA | 0.154 |
| ACATTCTA | -0.123 |

Series 6
Target: Interferon regulatory factor 7, full length, phosphomimetic (IRF7, Homo sapiens, UniProt Q92985, residues 1-503, S101K/S471D/S472D/S475D/S476D/S477D/S483D/S484D/S487D)
Method: protein-binding microarray
Form: double-stranded DNA, one strand shown
Sample: in vitro
Tested at: 250 nM
Notes: 60-bp whole probe
Added: salmon DNA 0.4 mg/ml
Baseline: random background probes
Reading: higher = stronger binding
All sequences stand within: GCCTAGCAC … GTCTTGATTCGCTTGACGCTGCTG
Target sequence (chain): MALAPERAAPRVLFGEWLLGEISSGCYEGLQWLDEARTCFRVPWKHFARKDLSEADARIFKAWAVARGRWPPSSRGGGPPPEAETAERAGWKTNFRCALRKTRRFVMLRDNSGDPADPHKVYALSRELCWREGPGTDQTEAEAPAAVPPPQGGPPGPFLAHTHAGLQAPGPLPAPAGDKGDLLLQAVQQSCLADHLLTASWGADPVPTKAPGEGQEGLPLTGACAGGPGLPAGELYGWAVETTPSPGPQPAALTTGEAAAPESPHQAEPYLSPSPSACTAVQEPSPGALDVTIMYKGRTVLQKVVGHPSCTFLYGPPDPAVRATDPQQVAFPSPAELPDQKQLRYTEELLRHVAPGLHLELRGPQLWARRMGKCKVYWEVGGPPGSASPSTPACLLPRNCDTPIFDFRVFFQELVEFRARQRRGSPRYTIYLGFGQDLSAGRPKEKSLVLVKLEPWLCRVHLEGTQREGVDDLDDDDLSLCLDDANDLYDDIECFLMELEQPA
| Strand | log fluorescence |
| --- | --- |
| TCAGGTATGGCCTATTTAACTGTGCTA | -0.681 z-score |
| TCAGTTTTGTGTGTGTGACTGTGCTAG | 0.38 z-score |
| TTAGGTTTAGGTATCGGTTAGTGCTAG | 1.26 z-score |
| TTAGACATCAGACTGGATTAGTGCTAG | -0.201 z-score |
| GACGGACTGGGCATCGGGACGTGCTAG | -0.865 z-score |
| TAAGAACTGAGACTGGATTAGTGCTAG | 0.116 z-score |
| TTTTTTTTCTGATCCATTTTGTGCTAG | 1.44 z-score |
| TCATCATTGTTTTTCATACTGTGCTAG | 0.704 z-score |
| GACGGACTGGGTTACGGGACGTGCTAG | -0.286 z-score |
| GACGGTATCCTATTGCTGACGTGCTAG | 0.644 z-score |
| GACGATATCAGTATCCAGACGTGCTAG | 0.142 z-score |
| GACGGACTGGGGTATCGGTACGTGCTA | -0.63 z-score |
| GACGGTCTCGGCCTCGGGACGTGCTAG | -0.196 z-score |
| TTAGACTTCAGTTTCGATTAGTGCTAG | 8.56 z-score |
| GAAGGTCTCGGTCTCGGGACGTGCTAG | 1.04 z-score |

Repeated from above (series 6):
| Strand | log fluorescence |
| --- | --- |
| GACGGTATCCTATTGCTGACGTGCTAG | 0.644 z-score |
| TCAGGTATGGCCTATTTAACTGTGCTA | -0.681 z-score |
| GACGATATCAGTATCCAGACGTGCTAG | 0.142 z-score |
| GACGGACTGGGTTACGGGACGTGCTAG | -0.286 z-score |
| TCAGTTTTGTGTGTGTGACTGTGCTAG | 0.38 z-score |
| GAAGGTCTCGGTCTCGGGACGTGCTAG | 1.04 z-score |
| TTAGGTTTAGGTATCGGTTAGTGCTAG | 1.26 z-score |
| GACGGACTGGGCATCGGGACGTGCTAG | -0.865 z-score |
| TAAGAACTGAGACTGGATTAGTGCTAG | 0.116 z-score |
| TCATCATTGTTTTTCATACTGTGCTAG | 0.704 z-score |
| GACGGTCTCGGCCTCGGGACGTGCTAG | -0.196 z-score |
| TTAGACTTCAGTTTCGATTAGTGCTAG | 8.56 z-score |
